{"data": "Experimental data gathered from unrelated publications", "note": "Parts stem from different laboratories: compare values within a part only. Substitutions count along the parent as printed."}
{"data": "Series 1", "target": "Sal-like protein 4, full length isoform B (SALL4, Homo sapiens, UniProt Q9UJQ4-2, residues 1-616)", "technique": "universal PBM", "molecule type": "double-stranded DNA, one strand shown", "matrix": "in vitro", "tested at": "not given", "setting": "8-mer, flanks averaged, mean of replicates", "reading": "higher = stronger binding", "Target sequence (chain)": "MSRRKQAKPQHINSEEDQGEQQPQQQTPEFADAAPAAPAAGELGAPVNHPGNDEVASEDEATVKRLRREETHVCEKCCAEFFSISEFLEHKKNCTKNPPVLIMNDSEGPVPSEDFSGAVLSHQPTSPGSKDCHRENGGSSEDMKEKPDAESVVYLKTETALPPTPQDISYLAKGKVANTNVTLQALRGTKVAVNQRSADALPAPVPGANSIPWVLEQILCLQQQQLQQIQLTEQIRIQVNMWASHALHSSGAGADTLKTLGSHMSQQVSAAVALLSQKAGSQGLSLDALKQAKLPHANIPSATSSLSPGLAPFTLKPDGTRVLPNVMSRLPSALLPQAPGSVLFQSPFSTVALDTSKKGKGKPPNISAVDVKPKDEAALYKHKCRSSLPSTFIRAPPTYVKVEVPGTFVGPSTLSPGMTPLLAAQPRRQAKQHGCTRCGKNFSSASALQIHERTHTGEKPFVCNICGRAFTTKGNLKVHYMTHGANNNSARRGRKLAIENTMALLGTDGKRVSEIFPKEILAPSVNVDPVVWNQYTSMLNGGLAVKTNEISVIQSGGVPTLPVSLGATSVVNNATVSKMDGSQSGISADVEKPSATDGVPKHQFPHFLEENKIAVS"}
{"Strand": "CCTGGTCG", "E-score": -0.307}
{"Strand": "GGCGCGAC", "E-score": -0.297}
{"Strand": "CGGAAACC", "E-score": -0.316}
{"Strand": "CGTTCATC", "E-score": -0.043}
{"Strand": "ACGGTAGC", "E-score": -0.176}
{"Strand": "AACCTCAT", "E-score": 0.175}
{"Strand": "ATCTCATG", "E-score": 0.0657}
{"Strand": "CCCTGGAA", "E-score": -0.241}
{"Strand": "AACCGATT", "E-score": 0.0711}
{"Strand": "CGCGGACC", "E-score": -0.299}
{"Strand": "TAGCCTGA", "E-score": -0.0896}
{"Strand": "AGCGAATG", "E-score": -0.199}
{"Strand": "AGACATGG", "E-score": 0.0849}
{"Strand": "AGCTATCA", "E-score": 0.0851}
{"Strand": "AGGGTCAG", "E-score": -0.234}
{"Strand": "AGAGCCCG", "E-score": -0.361}
{"Strand": "AAACCGGG", "E-score": -0.287}
{"Strand": "CCAGCCAA", "E-score": -0.157}
{"data": "Series 2", "target": "CCNB3, cyclin fold, Cln2 fusion (human)", "technique": "yeast growth competition, sequencing", "matrix": "yeast", "setting": "weak parent motif", "relative to": "not given", "reading": "higher = stronger binding", "starting sequence": "SLBP docking peptide (human); ARYKRKLLINDFG"}
{"Variant": "ARYKRKLLLNDFG [I9L]", "normalised enrichment score": 0.378}
{"Variant": "ARYKSKLLINDFG [R5S]", "normalised enrichment score": 0.885}
{"Variant": "ARYKRKRLINDFG [L7R]", "normalised enrichment score": 0.121}
{"Variant": "AKYKRKLLINDFG [R2K]", "normalised enrichment score": 0.414}
{"Variant": "ARYVRKLLINDFG [K4V]", "normalised enrichment score": 0.281}
{"Variant": "ARYKRKLLINDFD [G13D]", "normalised enrichment score": -0.172}
{"Variant": "ADYKRKLLINDFG [R2D]", "normalised enrichment score": 0.423}
{"Variant": "ARYKLKLLINDFG [R5L]", "normalised enrichment score": 0.562}
{"Variant": "ARYKRKLLINDFM [G13M]", "normalised enrichment score": 0.383}
{"Variant": "ARYKFKLLINDFG [R5F]", "normalised enrichment score": 0.17}
{"Variant": "ARYKRKDLINDFG [L7D]", "normalised enrichment score": 0.179}
{"Variant": "ARYKRKLLINFFG [D11F]", "normalised enrichment score": 0.155}
{"Variant": "ARYIRKLLINDFG [K4I]", "normalised enrichment score": -0.117}
{"data": "Series 3", "target": "ABI1, truncated, D143A, DHFR fusion (Arabidopsis thaliana)", "technique": "DHFR PCA, deep sequencing", "matrix": "yeast", "setting": "methotrexate growth selection, single substitutions", "together with": "(+)-ABA 0.0091 µM", "relative to": "wild-type fitted maximum", "reading": "higher = stronger binding", "starting sequence": "PYL1, truncated, DHFR fusion (Arabidopsis thaliana); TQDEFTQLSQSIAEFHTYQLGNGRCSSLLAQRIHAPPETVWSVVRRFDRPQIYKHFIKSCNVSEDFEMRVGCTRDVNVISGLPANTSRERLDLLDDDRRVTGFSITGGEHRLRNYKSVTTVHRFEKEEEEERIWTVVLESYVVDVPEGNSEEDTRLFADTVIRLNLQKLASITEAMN"}
{"Variant": "L94M", "relative binding score [%]": 4.55}
{"Variant": "I57R", "relative binding score [%]": 0.656}
{"Variant": "Q7S", "relative binding score [%]": 27.5}
{"Variant": "S80F", "relative binding score [%]": 64.3}
{"Variant": "T160V", "relative binding score [%]": -2.29}
{"Variant": "S27W", "relative binding score [%]": -0.341}
{"Variant": "F66M", "relative binding score [%]": -1.52}
{"Variant": "F124L", "relative binding score [%]": 42}
{"Variant": "Q167E", "relative binding score [%]": 42.7}
{"Variant": "T173I", "relative binding score [%]": 4.65}
{"data": "Other studies, line by line"}
{"Substance": "PhoQ, residues 284 288 289 292 302 303 SLANKL", "target": "PhoP, residues 12 14 15 18 19 HLGGL (Escherichia coli, UniProt P23836)", "test": "Sort-seq, refers to: YFP reporter", "system": "E. coli", "setting": "PhoQ-PhoP variant library, together with: 10 µM Mg2+", "scale": "relative to: high Mg2+ state, higher = stronger signaling", "endpoint": "fold induction", "value": 18.6}
